Measurements of several laboratories.
Every numbered part comes from another study and shows a few of its results, in no order. Substitutions count along the parent as printed.

Series 1 — technique: protein-binding microarray; form: double-stranded DNA, one strand shown; sample: in vitro; concentration: 940 nM top; notes: 60-bp whole probe; together with: salmon DNA 0.4 mg/ml; baseline: random background probes; reading: higher = stronger binding; shared flanks, not repeated: GCCTAGCAC … GTCTTGATTCGCTTGACGCTGCTG
Target: Interferon regulatory factor 5, full length, phosphomimetic (IRF5, Homo sapiens, UniProt Q13568-2, residues 1-514, S451D/S453D/S456D/S462D)
Strand | fitted relative affinity
TTATGTCTCGGTATCGGTTAGTGCTAG | 6.59 z-score
GACGTTTTCGGTTCCGGGACGTGCTAG | 3.72 z-score
TTAGGTTTCGGTTCCTGTTAGTGCTAG | 14.7 z-score
CTAGGTATCGGGTATCGGTTAGTGCTA | 6.5 z-score
ATTTTTTAGCTTCTCAATTAGTGCTAG | 0.628 z-score
TCAATTTTCGGGTAGATGACTGTGCTA | 1.67 z-score
GACGGACTGGGGAATGGGGACGTGCTA | -0.116 z-score
TTAGAACGGAGACTGGATTAGTGCTAG | -0.0292 z-score
TTAGGTAACCTTCTCCTTTAGTGCTAG | 0.258 z-score
AGTTTTTACTTTCTGAATGCGTGCTAG | 1.93 z-score
GACGGACTGGGGCCTGGGGACGTGCTA | -0.595 z-score
TTAGGTCTCCTTTACCTTTAGTGCTAG | 0.733 z-score
GACGGTCTCCTTTTCCGGACGTGCTAG | 1 z-score
TTAGACCTCAGTATCGATTAGTGCTAG | 4.51 z-score
GACGGTATCGGGAATCGGGACGTGCTA | 3.31 z-score
GGATATATATCATTTAATTAGTGCTAG | -0.206 z-score
CCGTGTTTCTCAACCATTTTGTGCTAG | 0.796 z-score
GACGATATAAGTTTCGAGACGTGCTAG | 2.96 z-score
GACGATTTCAATATCGAGACGTGCTAG | 0.549 z-score

Series 2 — technique: RNA Bind-n-Seq; form: RNA; sample: in vitro; concentration: 200 nM; notes: whole 134-nt RNA, ends assumed; together with: 150 mM LiCl; baseline: input library; reading: higher = stronger binding; library: 7-deaza-guanosine replaces G
Target: Fragile X messenger ribonucleoprotein 1, C-terminal low-complexity region (Fmr1, Mus musculus, UniProt P35922)
Shared flanks, not repeated: GGGAGUUCUACAGUCCGACGAUC … UGGAAUUCUCGGGUGUCAAGG
Strand | log2 enrichment
CUCAAGUCCUGUGCUACACAUCGUAUGUACCGAAUCGGGGUUGGGUUGGUUGGAAAGUAUUAUGUUACGCCGUUCGGAUCUGCACUUCCA | 0.0678
CACAGACAACACGCACCCACACAGACACAGAGGGAAGGGGUUGGGAUGGGGACAGGGUGCACAGCAGAAAGGGGUAGGACCCCAGCCCCU | 0.72
UCCUGUGCUACACAUCGUAUGUACCGAAUCGGGGAAAAAGGGGUUUGGGGAAAAAGGGGAAAGUAUUAUGUUACGCCGUUCGGAUCUGCA | -1.69
UGCAGCAGCGCCAGGAAUCGAGGAUGGUAAAAUGACCCAGGGGAAGAAGAAGAAACGGGCCGCGAACCGCAGUAUCAUGCUGGCCAAGAA | 0.516
CAAGUCCUGUGCUACACAUCGUAUGUACCGAAUCGGGUUUGGGGUUUGGUUUGGGAAAGUAUUAUGUUACGCCGUUCGGAUCUGCACUUC | -1.5

Series 3 — technique: protein binding microarray; form: double-stranded DNA, one strand shown; sample: in vitro; concentration: not given; baseline: not given; reading: higher = stronger binding
Target: Histone acetyltransferase KAT6A, winged helix 1, GST fusion (KAT6A, Homo sapiens, UniProt Q92794, residues 1-85)
Notes: 8-mer, flanks averaged, mean of 2 arrays, mostly near background
Construct (chain): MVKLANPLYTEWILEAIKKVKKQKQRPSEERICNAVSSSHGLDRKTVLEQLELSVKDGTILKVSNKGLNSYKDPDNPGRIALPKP
Strand | E-score
AACACCTG | -0.193
CCGCTCCG | 0.37
ACGTCCCA | -0.216
ATGGCCCA | -0.179
AGACCGCT | 0.213
AGATGGGC | 0.0177
CTCTGTTC | -0.26
GCATGTTA | 0.136
GAAATCCA | -0.22
AATAGACC | -0.0141
TCAGCTGA | -0.121
TGAACGCA | -0.198
ACTCGGTC | 0.105
ATGTCAGA | -0.063
GCCCCGGA | 0.235
AGGATGAG | -0.0202
CAGTTCTA | -0.0439

Series 4 — technique: universal PBM; form: double-stranded DNA, one strand shown; sample: in vitro; concentration: not given; reading: higher = stronger binding
Target: Sal-like protein 4, full length isoform B (SALL4, Homo sapiens, UniProt Q9UJQ4-2, residues 1-616)
Notes: 8-mer, flanks averaged, mean of replicates
Strand | E-score
GGTATCAA | 0.0725
AACTCTTC | -0.066
CCCGGACC | -0.376
TGGGTACA | -0.102
CAGTGCAA | 0.0301
CATGTAGA | 0.191
CCCCCGAG | -0.209
ACACGGTA | -0.0847
CACACCTC | -0.126

Series 5 — technique: DHFR PCA, deep sequencing; sample: yeast; together with: (+)-ABA 0.0091 µM; baseline: wild-type fitted maximum; reading: higher = stronger binding
Target: ABI1, truncated, D143A, DHFR fusion (Arabidopsis thaliana)
Notes: methotrexate growth selection, single substitutions
Parent: PYL1, truncated, DHFR fusion (Arabidopsis thaliana); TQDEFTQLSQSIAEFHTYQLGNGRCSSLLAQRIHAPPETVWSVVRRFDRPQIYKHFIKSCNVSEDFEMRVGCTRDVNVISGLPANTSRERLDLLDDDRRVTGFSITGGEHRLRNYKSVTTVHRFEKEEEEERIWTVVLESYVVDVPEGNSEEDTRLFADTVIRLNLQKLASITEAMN; partner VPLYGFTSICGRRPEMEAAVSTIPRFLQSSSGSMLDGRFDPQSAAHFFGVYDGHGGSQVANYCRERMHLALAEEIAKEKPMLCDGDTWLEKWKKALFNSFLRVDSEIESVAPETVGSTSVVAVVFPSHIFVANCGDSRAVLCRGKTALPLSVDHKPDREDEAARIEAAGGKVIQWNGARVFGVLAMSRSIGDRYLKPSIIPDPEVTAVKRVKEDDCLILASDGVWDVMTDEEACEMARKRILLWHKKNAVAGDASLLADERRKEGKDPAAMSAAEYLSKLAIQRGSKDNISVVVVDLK
Substitution | relative binding score
V137D | -8.19%
H110Q | 44.2%
G107N | 10.8%
Y53Q | -4.52%
K116R | 45.7%
R74C | 2.15%
R113Q | 43.5%
D75K | 8.86%
N165K | 3.21%
E130C | 28.4%
G108I | -7.82%
E4V | 31.8%
T119H | -2.57%
R69K | 62.4%
G23V | -1.63%
V161L | 61.2%

Repeated from above (series 1):
Strand | fitted relative affinity
GACGGTCTCCTTTTCCGGACGTGCTAG | 1 z-score
GACGATATAAGTTTCGAGACGTGCTAG | 2.96 z-score
CTAGGTATCGGGTATCGGTTAGTGCTA | 6.5 z-score
TTAGGTTTCGGTTCCTGTTAGTGCTAG | 14.7 z-score
ATTTTTTAGCTTCTCAATTAGTGCTAG | 0.628 z-score
